Assay results gathered from unrelated publications.
Numbered parts are unrelated; each lists some results of a single study. Substitutions count along the parent as printed.

Block 1
Target: FOS, bZIP domain (human)
Technique: DHFR protein complementation
Matrix: yeast
Notes: single substitutions, most at no-binding floor
Relative to: wild-type JUN-FOS pair
Direction: higher = stronger binding
Starting sequence: JUN, bZIP domain (human); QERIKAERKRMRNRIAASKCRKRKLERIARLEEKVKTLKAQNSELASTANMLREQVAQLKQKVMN; partner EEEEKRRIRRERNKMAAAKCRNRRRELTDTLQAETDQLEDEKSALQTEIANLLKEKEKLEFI
`A57R` gave a binding fitness of -0.0968 natural log.
For `L31P`, the binding fitness was -1.17 natural log.
The binding fitness of `T37K` is reported as -0.023 natural log.
The binding fitness of `A46T` is reported as -0.0696 natural log.
For `E32N`, the binding fitness was -0.297 natural log.
With `L38M` the binding fitness was -0.303 natural log.
`T48W` has a binding fitness of -0.162 natural log.
The binding fitness of `A49L` is reported as -0.0851 natural log.
With `R30A` the binding fitness was 0.243 natural log.
The binding fitness of `E54G` is reported as -0.123 natural log.
For `V56Y`, the binding fitness was -1.35 natural log.
With `A40N` the binding fitness was -0.119 natural log.
`T37G` has a binding fitness of -0.1 natural log.
For `R30W`, the binding fitness was 0.0102 natural log.

Block 2
Target: ABI1, truncated, D143A, DHFR fusion (Arabidopsis thaliana)
Technique: DHFR PCA, deep sequencing
Matrix: yeast
Notes: methotrexate growth selection, single substitutions
With: (+)-ABA 200 µM
Relative to: wild-type fitted maximum
Direction: higher = stronger binding
Starting sequence: PYL1, truncated, DHFR fusion (Arabidopsis thaliana); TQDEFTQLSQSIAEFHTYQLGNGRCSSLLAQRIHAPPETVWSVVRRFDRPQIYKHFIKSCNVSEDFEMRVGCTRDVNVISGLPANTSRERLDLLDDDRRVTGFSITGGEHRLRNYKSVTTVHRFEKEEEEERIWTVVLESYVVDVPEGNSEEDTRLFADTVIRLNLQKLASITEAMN; partner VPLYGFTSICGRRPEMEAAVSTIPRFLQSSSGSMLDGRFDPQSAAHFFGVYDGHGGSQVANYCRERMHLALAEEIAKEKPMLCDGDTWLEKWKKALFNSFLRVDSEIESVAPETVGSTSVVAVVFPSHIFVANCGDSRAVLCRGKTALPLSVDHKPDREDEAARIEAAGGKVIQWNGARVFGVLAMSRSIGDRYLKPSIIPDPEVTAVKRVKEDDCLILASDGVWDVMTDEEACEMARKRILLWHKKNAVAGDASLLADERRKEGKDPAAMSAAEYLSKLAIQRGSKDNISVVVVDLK
`F47T`: “relative binding score” 1.2%.
`V40N` — result for “relative binding score”: 9.38%.
Under “relative binding score”, `R99E` is recorded as 47.4%.
`E64A`: “relative binding score” 102%.
Under “relative binding score”, `L8R` is recorded as 65.1%.
`S59F` — result for “relative binding score”: 83.4%.
`L29E`: “relative binding score” 17%.
`G107A`: “relative binding score” 92.1%.
`R32S`: “relative binding score” 89.9%.
`V137E`: “relative binding score” 3.77%.
`H16K`: “relative binding score” 20%.
`L164T`: “relative binding score” 105%.
`N85H` — result for “relative binding score”: 101%.
For `T39N`, “relative binding score” read 96.8%.
For `I52A`, “relative binding score” read 103%.
`V78D` — result for “relative binding score”: -4.12%.
For `W134I`, “relative binding score” read 103%.
For `R49Q`, “relative binding score” read 101%.
For `L82N`, “relative binding score” read 15.5%.

Block 3
Target: Sal-like protein 4, full length isoform B (SALL4, Homo sapiens, UniProt Q9UJQ4-2, residues 1-616)
Technique: universal PBM
Molecule type: double-stranded DNA, one strand shown
Matrix: in vitro
Tested at: not given
Notes: 8-mer, flanks averaged, mean of replicates
Direction: higher = stronger binding
`ATGGCTGG` has an E-score of -0.222.
The E-score of `GTCTAGAA` is reported as 0.25.
With `ACAGAAGG` the E-score was -0.199.
With `ATGACTAC` the E-score was 0.139.
`AGCACGAA` gave an E-score of -0.0596.
`AGCTTGTG` has an E-score of -0.0896.
For `AAATAGGC`, the E-score was 0.139.
The E-score of `TCGCCCCA` is reported as -0.24.
`GCGCCCGA` gave an E-score of -0.313.
For `CGCGCTTA`, the E-score was -0.208.
For `AAACCATG`, the E-score was 0.0206.
For `CCCAGTCA`, the E-score was -0.176.
For `CCTTATAC`, the E-score was 0.177.
`AATTTCTC` has an E-score of 0.188.
With `ACCTCGAG` the E-score was -0.0213.
The E-score of `CGTAGCAC` is reported as 0.0674.
The E-score of `GCGTGACC` is reported as -0.264.
For `GCAGGTCC`, the E-score was -0.295.
The E-score of `AGAGGCTA` is reported as -0.0529.
`AATCGATG` has an E-score of 0.0884.
The E-score of `AGGTATGG` is reported as -0.124.
For `AAAAGACT`, the E-score was 0.0912.

Block 4
Target: RNA binding protein fox-1 homolog 2, RRM domain, GST-SBP tag (RBFOX2, Homo sapiens, UniProt O43251-10, residues 100-194)
Technique: RNA Bind-n-Seq
Molecule type: RNA
Matrix: in vitro
Tested at: 365 nM
Notes: natural RNA segment, single round, ends assumed
Relative to: no-protein control
Direction: higher = stronger binding
Target sequence (chain): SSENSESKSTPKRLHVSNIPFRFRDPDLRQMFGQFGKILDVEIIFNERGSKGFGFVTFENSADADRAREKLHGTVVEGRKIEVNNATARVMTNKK
For `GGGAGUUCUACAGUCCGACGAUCUGGCUUCCUAGAGUUUGGACAUAUUCCAGGCUAAAUGCUUUUACUCAAGACUACAGAAAGGUUUGAAGUAGUGUGUGCAUGGCAUGCACGUAUGUAAGUAAUCUGGGGAAUGGAAUUCUCGGGUGCCAA`, “RBNS enrichment (R)” read 0.653.
`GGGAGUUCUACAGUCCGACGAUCCACAUUGCAAUCACUUGAUUGUGAGUCCUUGGGAGCAAAUGCCUGAUGCUGUAUUUUCACAACUCUGAGGAAACGUCUGGGAACUCCUAGGGGUAGGCGAUUGACUGCCUUGGAAUUCUCGGGUGCCAA`: “RBNS enrichment (R)” 0.418.
`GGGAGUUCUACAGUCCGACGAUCCAAAAACCAAACAAACUGGCAGACAGGCCAGGGAUGUAUGUUGCUUGCUUGAGAGGGUUUCUUUUACUUCAAAAUCUUUCUUCAGGGAGCAAGACAUGAACUGACUAAUUUGGAAUUCUCGGGUGCCAA`: “RBNS enrichment (R)” 0.642.
`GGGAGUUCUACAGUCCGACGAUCCAUCCUGGGAGCGCCAUAGUUCAUCUUUCACCCACACGCCUUCCCUCCAUUCCUGAGCAGGACUAGUCCGUCCCAGAGGGCCACUGCUAGACUUCCUGUUAGGGGCAAUGUGGAAUUCUCGGGUGCCAA` — result for “RBNS enrichment (R)”: 0.311.
Under “RBNS enrichment (R)”, `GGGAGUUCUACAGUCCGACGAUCUUGUUGAAACAGGCCCAGAAGAACCUCAGGAGGUACCUUGGGCCCUUCCCUGCUAUCCUUUUUCUCCUUUGGAGGUGCCCAACCUCCUCCACCCCCUUCCCCUACUCUAGUGGAAUUCUCGGGUGCCAA` is recorded as 0.408.
`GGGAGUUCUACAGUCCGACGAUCCAUUCAAAGGUUCUUGAGACUCUUGAUAUUUCUGUCUUCUCCUUGUGCUUUCCUAUGGAAAAAAUACAUAUAUAGUUUAGUUUGUUAGACGUGAGUUAUCCAAGUAUUUAUGGAAUUCUCGGGUGCCAA` — result for “RBNS enrichment (R)”: 0.488.
`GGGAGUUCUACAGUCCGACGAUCCCACGGAGUCCGGUGUGGGGGGUUUGGUUCUAACUGUCCUGGUGAUGCCUCUCUGAGUGGAAAUCUUAUUUUUGUAGAUCUGUACUUUGCUCUCGAGGCUUGGAGAGAUGUGGAAUUCUCGGGUGCCAA` — result for “RBNS enrichment (R)”: 0.639.
Under “RBNS enrichment (R)”, `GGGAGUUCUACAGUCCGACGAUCUUUCUUUCUGUUCAGGAACCAUCAGUCCCCUUGUAAUAAAGGUGGUAGAUUUCAUUGAGGUUUUAGAUUGAAACUUUGAAUAAAUCAAAAAUACUCAUUCUUAUUUACUGUGGAAUUCUCGGGUGCCAA` is recorded as 0.352.
Under “RBNS enrichment (R)”, `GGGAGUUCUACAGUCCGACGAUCUGUGUUAAACCGCUUGAGUUACACCUUGUGACCCUUCUCCCAUAACAUGGUGUGAGGACGGACUGGGAGCCGGUACAGACUCCAGUGUUUACAGCUUUGCCAUGUCCCCAUGGAAUUCUCGGGUGCCAA` is recorded as 0.339.
`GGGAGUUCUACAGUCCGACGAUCGAGGACAGGGCAUUGUCCUCAGUCAGAUACAACAGCAUUUGGGGCCAUGGUACCUGCACACCUAAAACACUAGGCCACGCAUCUGAUCUGUAGUCACAUGACUAAGCCAAUGGAAUUCUCGGGUGCCAA`: “RBNS enrichment (R)” 1.19.
`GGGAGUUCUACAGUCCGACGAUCGCAUAAGACGGGGAGGUUCUUCUUAUUUUGUGAGCCGGUUGCCCUGGAAACGGAUAACAAAGGGCAGCCUUCCACUUCUGGUAUAAUGGGGGAGCCUCUUUUCUCAGGCUUGGAAUUCUCGGGUGCCAA`: “RBNS enrichment (R)” 0.402.
For `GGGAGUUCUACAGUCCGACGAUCGCCACGUGCCAGGCCCGGGGCUGGCGGCUACUCAGCAGCCCUCCUCACCCCGUCUGGGGUUCAGCCCCUCCUCUGCCACCUCCCCUAUCCACCCAGCCCAUUCUCUCUCCUGGAAUUCUCGGGUGCCAA`, “RBNS enrichment (R)” read 0.545.

Mixed results
P1: SGO1 docking peptide (human); PLAKRALKYTDEK; partner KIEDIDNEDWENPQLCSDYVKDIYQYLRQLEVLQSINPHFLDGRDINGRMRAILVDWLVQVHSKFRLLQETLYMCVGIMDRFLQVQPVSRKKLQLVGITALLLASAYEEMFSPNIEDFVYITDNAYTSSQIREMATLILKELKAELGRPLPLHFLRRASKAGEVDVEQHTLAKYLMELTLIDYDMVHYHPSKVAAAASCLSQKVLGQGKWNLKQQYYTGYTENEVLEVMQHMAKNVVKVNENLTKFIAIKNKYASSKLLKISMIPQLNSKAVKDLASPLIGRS
`KGVKRKLFAEDSS` — result for “growth enrichment score”: -0.035 (Saccharomyces cerevisiae; binding, competitive growth deep sequencing; peptide, cyclin D3-Cln2 fusion strain; concentration not given, RxL motif peptides; direction not given).
`REPARRLFLFGEE`: “growth enrichment score” 0.324 (Saccharomyces cerevisiae; binding, competitive growth deep sequencing; peptide, cyclin E1-Cln2 fusion strain; concentration not given, Cln2 score subtracted; direction not given).
`P1 E12A` — result for “normalised enrichment score”: 0.641 (CCNB2, cyclin fold, Cln2 fusion (human); yeast growth competition, sequencing; yeast; weak parent motif; relative to: not given, higher = stronger binding).
`ALLRRLQDVANDRGSH`: “growth enrichment score” 0.0339 (Saccharomyces cerevisiae; binding, competitive growth deep sequencing; peptide, cyclin E1-Cln2 fusion strain; concentration not given, tiling library, Cln2 subtracted; direction not given).
